Measurements from different studies.
Protocols differ between the studies behind these lines.
Cell line: MDA-MB-468

SMILES	assay	setting	measurement	result
CC(C)(C)NCCCn1c(Sc2cc(Cl)cc(Cl)c2)nc2c(N)ncnc21	cell growth or viability, resazurin	72 h	IC50	0.21 µM
CC(C)(C)OC(=O)N1CCN(CC(OCc2ccc(Br)cc2)c2ccc(Cl)cc2Cl)CC1 (stereo not shown)	cell growth or viability, MTT	24 h	IC50	22.8 µM
Cc1nc2c(F)cc(-c3nc(Nc4ccc(CNC(=O)CCCC(=O)NO)cc4)ncc3F)cc2n1C(C)C	cell growth or viability, CCK-8	0.3 µM, 48 h	inhibition	82.9%
CC(C)NCCCn1c(Sc2cc(Cl)cc(I)c2)nc2c(N)nc(F)nc21	cell growth or viability, resazurin	72 h	IC50	0.05 µM
C#CCCCC(O)/C=C/C(=O)NC1(c2ccc(-c3nc4ccn5c(=O)[nH]nc5c4cc3-c3ccccc3)cc2)CCC1 (stereo not shown)	flow cytometry, PI staining	EC80 concentration, 72 h, DMSO 22.2	cells in S phase	22.1%
Cc1cc(C)nc(NC(=S)N2CCN(c3ccncc3)CC2)c1	serine synthesis	10 µM, 4 h, together with: U-13C-glucose	M+3 serine and glycine pools	no effect
CN1CCN(CC(=O)N2CCN(CC(OCc3ccc4ccccc4c3)c3ccc(Cl)cc3Cl)CC2)CC1 (stereo not shown)	cell growth or viability, MTT	24 h	IC50	5.81 µM
C=C(C)c1cc(Cl)cc(Sc2nc3c(N)ncnc3n2CCCNC(C)C)c1	cell growth or viability, resazurin	72 h	IC50	0.06 µM
Clc1ccc(C(Cn2cncn2)OCc2ccc3ccccc3c2)c(Cl)c1 (stereo not shown)	cell growth or viability, MTT	24 h	IC50	33.4 µM
C#CCCCC(F)/C=C/C(=O)NC1(c2ccc(-c3nc4ccn5c(=O)[nH]nc5c4cc3-c3ccccc3)cc2)CCC1 (stereo not shown)	flow cytometry, PI staining	EC80 concentration, 72 h, DMSO 22.2	cells in S phase	16.6%
CCN(C(=O)c1cc(F)ccc1Oc1nncnc1N1CCC2(C1)CN([C@H](CCCN(C)CCOC)C(C)C)C2)C(C)C	cell growth or viability	72 h	GI50	> 10 µM
CCCCN(CCCC)CC(=O)N1CCN(CC(OCc2ccc3ccccc3c2)c2ccc(Cl)cc2Cl)CC1 (stereo not shown)	cell growth or viability, MTT	24 h	IC50	38.3 µM
Cc1cc(C)nc(NC(=S)N2CCN(Cc3ccc(C(F)(F)F)cc3)CC2)c1	isotope labelling	10 µM, 4 h, together with: U-13C-glucose	M+3 serine pool	decreased
O=C(c1ccc(Br)cc1)N1CCN(CC(OCc2ccc3ccccc3c2)c2ccc(Cl)cc2Cl)CC1 (stereo not shown)	cell growth or viability, MTT	24 h	IC50	43.5 µM
Cc1nc2c(F)cc(-c3nc(Nc4ccc(CNC(=O)CCCCCC(=O)NO)cc4)ncc3F)cc2n1C(C)C	cell growth or viability, CCK-8	0.3 µM, 48 h	inhibition	99.6%
Clc1ccc(C(Cn2cnc3ccccc32)OCc2ccc3ccccc3c2)c(Cl)c1 (stereo not shown)	cell growth or viability, MTT	24 h	IC50	> 50 µM
O=S1(=O)CC2CCCCC2CS1 (stereo not shown)	MTT	25 µM, 72 h	viability	2.89%
O=C(Nc1nnc2c1c(-c1ccc(Cl)cc1)nc1sc(=Cc3ccco3)c(=O)n12)c1ccccc1 (mixture of isomers)	NCI60 SRB	10 µM	growth percent	46.1%
CCCC(CCC)C(=O)OCc1cn(-c2cc3ccccc3oc2=O)nn1	NCI60 single-dose screen	10 µM	growth percentage	94.5%
COc1cccc(-c2cc(Cl)cc(Sc3nc4c(N)ncnc4n3CCCNC(C)C)c2)c1	cell growth or viability, resazurin	72 h	IC50	> 10 µM
C1=[N+]2CCCC[N+]3=Cc4ccc5[n]4[Au-]23[n]2c1ccc2-c1nc2ccccc2nc1-5.F[P-](F)(F)(F)(F)F	NCI60 five-dose screen	–	TGI	5.51 -log M
CC(C)NCCCn1c(Sc2cc(Br)cc(I)c2)nc2c(N)ncnc21	cell growth or viability, resazurin	72 h	IC50	0.08 µM
Clc1ccc(COC(Cn2cncn2)c2ccc(Cl)cc2Cl)cc1 (stereo not shown)	cell growth or viability, MTT	24 h	IC50	40.9 µM
CC(C)NCCCn1c(Sc2cc(Cl)cc(-c3ccc[nH]3)c2)nc2c(N)ncnc21	cell growth or viability, resazurin	72 h	IC50	0.28 µM
COc1ccc(C(=O)N2CCN(CC(OCc3ccc4ccccc4c3)c3ccc(Cl)cc3Cl)CC2)cc1 (stereo not shown)	cell growth or viability, MTT	24 h	IC50	44.7 µM

A few entries again:
SMILES	assay	setting	measurement	result
C1=[N+]2CCCC[N+]3=Cc4ccc5[n]4[Au-]23[n]2c1ccc2-c1nc2ccccc2nc1-5.F[P-](F)(F)(F)(F)F	NCI60 five-dose screen	–	TGI	5.51 -log M
